# Experimental data gathered from unrelated publications.
# Numbered parts are unrelated; each lists some results of a single study.

# Series 1 — technique: RNA Bind-n-Seq; molecule type: RNA; medium: in vitro; concentration: 200 nM; setting: whole 134-nt RNA, ends assumed; together with: 150 mM KCl; baseline: input library; reading: higher = stronger binding
# Target: Fragile X messenger ribonucleoprotein 1, C-terminal low-complexity region (Fmr1, Mus musculus, UniProt P35922)
Strand,log2 enrichment
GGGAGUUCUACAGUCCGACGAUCACCAUGCAGGUGGGCAUCUUUGGGAAGUGGGGCAAGGGGGGAAAAGGGAGGGGGGUAACACUUUGGGAACAGGUGGUCCCAGGUCGUUUCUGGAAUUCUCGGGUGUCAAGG,0.587
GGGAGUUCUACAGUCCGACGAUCUCCUGUGCUACACAUCGUAUGUACCGAAUCGUGUGUGUGUGUGUGUGUGUGUGUGUGUGAAAGUAUUAUGUUACGCCGUUCGGAUCUGCAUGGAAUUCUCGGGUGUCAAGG,1
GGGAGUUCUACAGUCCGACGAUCCAAGUCCUGUGCUACACAUCGUAUGUACCGAAUCGGGAGGGUUUGGGAAAAAGGGAAAGUAUUAUGUUACGCCGUUCGGAUCUGCACUUCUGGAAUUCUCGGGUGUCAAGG,0.78
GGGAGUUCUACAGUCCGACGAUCUAACUUUAGAGGAGGAUCUGAUGGAUAUGGCAGUGGACGUCGAUUUGGGGAUGGCUAUAAUGGGUAUGGAGGAGGACCUGGAGGUGGCAAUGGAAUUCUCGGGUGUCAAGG,0.191
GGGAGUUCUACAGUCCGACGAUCAAGUCCUGUGCUACACAUCGUAUGUACCGAAUCGGGUUUGGGGUUUGGGGUUUGGGAAAGUAUUAUGUUACGCCGUUCGGAUCUGCACUUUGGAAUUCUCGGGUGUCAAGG,0.684
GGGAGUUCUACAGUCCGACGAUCUUUAUCAUGAGGAGCUCAACGCGCCCAUACGGAGAAACAAAGAAGAGCCCAAGGCCCGGCCCUUGAGAGUAGGUGACACGGAGAAGCCAGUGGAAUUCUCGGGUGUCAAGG,-0.446
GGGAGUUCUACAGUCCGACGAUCCCUCAAGUCCUGUGCUACACAUCGUAUGUACCGAAUCGGUGGUUUUUGGAGGAAAGUAUUAUGUUACGCCGUUCGGAUCUGCACUUCCAGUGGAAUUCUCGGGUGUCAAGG,0.252

# Series 2 — technique: aptamer microarray, sandwich; molecule type: DNA with 2'F-ANA; medium: in vitro; concentration: 200 nM; together with: Cy3 exosite-II aptamer, 400 nM; reading: higher = stronger binding; strand: GGTTGGTGTGGTTGG
# Target: Prothrombin, mature alpha-thrombin (F2, Homo sapiens, UniProt P00734)
# Setting: whole 15-mer aptamer, many near background
Modification,mean fluorescence intensity [a.u.]
2'F-ANA at 1 5 9 13 14 15,46.3
2'F-ANA at 3 5 6 7 8 9 10 14 15,50.2
2'F-ANA at 1 2 8 11 12 13 14,64.3
2'F-ANA at 2 4 5 8 9 10 13 15,48.6
2'F-ANA at 2 3 4 5 7 9 11 12 13 15,106
2'F-ANA at 2 6 9 10 11 14,88.5
2'F-ANA at 1 2 5 6 7 8 9 10,92.8

# Series 3 — technique: protein-binding microarray; molecule type: double-stranded DNA, one strand shown; medium: in vitro; concentration: 940 nM top; setting: 60-bp whole probe; together with: salmon DNA 0.4 mg/ml; baseline: random background probes; reading: higher = stronger binding; shared flanks, not repeated: GCCTAGCAC … GTCTTGATTCGCTTGACGCTGCTG
# Target: Interferon regulatory factor 5, full length, phosphomimetic (IRF5, Homo sapiens, UniProt Q13568-2, residues 1-514, S451D/S453D/S456D/S462D)
Strand,fitted relative affinity
TTAGTTATCAGTATCGATTAGTGCTAG,4.92 z-score
GACGATTTCGGGTTTCGAGATGTGCTA,2.14 z-score
GACGGTTTCGACACTGTGGACGTGCTA,6.3 z-score
GACGATATCAGACTCGAGACGTGCTAG,-0.426 z-score
GCAGACTACCTATGAGTATCGTGCTAG,0.451 z-score
ATTGCTTCCTCTTTCTCTGCGTGCTAG,1.29 z-score
GTAGGTATCGGGTTTCGGTTAGTGCTA,7.37 z-score
TCATTTTTTTCTATATGACTGTGCTAG,1.57 z-score

# Single results of other studies
Substance,target,test,test system,conditions,scale,measurement,result
"PhoQ, residues 284 288 289 292 302 303 SSCLAV","PhoP, residues 12 14 15 18 19 NMSFL (Escherichia coli, UniProt P23836)","Sort-seq, refers to: YFP reporter",E. coli,"PhoQ-PhoP variant library, together with: 10 µM Mg2+","baseline: high Mg2+ state, higher = stronger signaling",fold induction,1.73

# Repeated from above (series 2):
Modification,mean fluorescence intensity [a.u.]
2'F-ANA at 2 4 5 8 9 10 13 15,48.6
2'F-ANA at 2 3 4 5 7 9 11 12 13 15,106
